# Published values from different studies.
# A part holds a random share of what one study measured. Changes are numbered by the printed parent chain.

# Block 1 — method: protein-binding microarray; molecule type: double-stranded DNA, one strand shown; medium: in vitro; tested at: 250 nM; setting: 60-bp whole probe; together with: salmon DNA 0.4 mg/ml; baseline: random background probes; reading: higher = stronger binding; all sequences stand within: GCCTAGCAC … GTCTTGATTCGCTTGACGCTGCTG
# Target: Interferon regulatory factor 7, full length, phosphomimetic (IRF7, Homo sapiens, UniProt Q92985, residues 1-503, S101K/S471D/S472D/S475D/S476D/S477D/S483D/S484D/S487D)
# Target sequence (chain): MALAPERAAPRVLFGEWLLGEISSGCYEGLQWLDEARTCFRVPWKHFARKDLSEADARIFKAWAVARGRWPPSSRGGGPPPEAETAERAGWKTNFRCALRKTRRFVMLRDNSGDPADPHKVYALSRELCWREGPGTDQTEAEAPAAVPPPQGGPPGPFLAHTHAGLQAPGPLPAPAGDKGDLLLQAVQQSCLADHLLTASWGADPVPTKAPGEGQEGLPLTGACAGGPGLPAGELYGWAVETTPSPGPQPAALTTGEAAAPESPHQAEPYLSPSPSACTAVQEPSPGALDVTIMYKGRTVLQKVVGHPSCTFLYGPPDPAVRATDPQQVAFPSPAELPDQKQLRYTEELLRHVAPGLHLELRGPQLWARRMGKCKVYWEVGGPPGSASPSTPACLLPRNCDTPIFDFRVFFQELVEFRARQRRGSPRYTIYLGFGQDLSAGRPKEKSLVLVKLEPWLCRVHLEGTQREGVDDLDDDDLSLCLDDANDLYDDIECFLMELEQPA
Oligonucleotide,log fluorescence [z-score]
GACGATTCCGGGTATCGAGACGTGCTA,0.643
TTAGGTTTCCTTATCATTTAGTGCTAG,2.41
TCACTTTTATCCCTGACACTGTGCTAG,0.737
TTAGGTATCGGGTTTCGGTAAGTGCTA,3.5
CTGTTCTGCAGACTTCTGTCGTGCTAG,1.34
TTAGCTTTCAGTATCGATTAGTGCTAG,0.866
TTAGGTCTCGGTATAGGTTAGTGCTAG,1.8
GACGGTTCCGTTTTCCTGACGTGCTAG,6.17
TGGATGGTCCTGGTTTCATGGGTGCTA,0.0118
CTCTCTTTCCACTTGTCTTTGTGCTAG,2.06
GACGATCTCAGTTTCGAGTCGTGCTAG,7.62
TTAGATCTCACTCTCGATTAGTGCTAG,0.364
TTAGATTTCGGGTATCCATTAGTGCTA,0.772
TTCAGTTTTCCTCTGTCATTGTGCTAG,1.3
TTAGGTTTCGGGACTGGCTTAGTGCTA,3.79
AACGGTTTCGGGTTTCGGGACGTGCTA,12.5
GACGGACTGCTTATGCTGACGTGCTAG,-0.805
TCCACTTTCTTAATGCTTCTGTGCTAG,1.01
TTGGGTTTCGGGACTGGGTTAGTGCTA,3.16
GACGAACTGGGGTTTCGAGACGTGCTA,1.9
TTTCATTGCTGCCCTCAGAAAGTGCTA,0.57
GAAGGTTTCGGGACTGGGGACGTGCTA,3.54
GACGGAATGCTTATCCTGACGTGCTAG,-0.763
GACGAACTGAGTTTCGAGACGTGCTAG,3.45
TTAGGTTTTGGTATCGGTTAGTGCTAG,2.72

# Block 2 — target: CRIPT, C-terminal peptide; method: DHFR complementation, deep sequencing; medium: yeast; baseline: wild type; reading: higher = weaker binding
# Setting: single substitutions, model-inferred values
# Starting sequence: ERBIN, PDZ domain 1 (human); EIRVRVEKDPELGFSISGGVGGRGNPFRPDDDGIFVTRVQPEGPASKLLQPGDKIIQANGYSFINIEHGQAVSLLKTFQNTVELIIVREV; partner TKNYKQTSV
Change,binding free energy change [kcal/mol]
L74K,-0.00112
I2N,0.28
K47W,0.284
G13Q,0.692
V36G,0.726
L84T,0.894
S15A,0.146
N80Q,0.027
I66P,0.886
D53S,0.666
D30C,0.397
F27I,0.754
V72Q,1.47
G52D,0.997
G69A,0.118
L48A,0.122
P26N,0.729
I16L,0.0738
I56D,-0.255
I66G,1.35
P10I,-0.5
S15D,0.722
L84A,0.667
V87G,-0.0888
L84G,0.949

# Block 3 — method: RNA Bind-n-Seq; molecule type: RNA; medium: in vitro; tested at: not given; baseline: input RNA pool; reading: higher = stronger binding
# Target: RING finger protein unkempt homolog, zinc fingers 1-6, GST-SBP tag (UNK, Homo sapiens, UniProt Q9C0B0, residues 30-357)
# Chain of UniProt Q9C0B0 (30-357, looked up): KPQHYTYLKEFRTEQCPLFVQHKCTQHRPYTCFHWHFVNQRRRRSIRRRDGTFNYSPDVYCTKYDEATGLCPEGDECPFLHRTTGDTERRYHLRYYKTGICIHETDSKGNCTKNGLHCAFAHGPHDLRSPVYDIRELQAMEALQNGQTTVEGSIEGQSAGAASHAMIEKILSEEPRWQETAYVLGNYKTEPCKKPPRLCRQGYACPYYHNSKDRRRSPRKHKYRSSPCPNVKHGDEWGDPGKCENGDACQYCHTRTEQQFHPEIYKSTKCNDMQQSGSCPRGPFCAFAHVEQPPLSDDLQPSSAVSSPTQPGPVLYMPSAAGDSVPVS
# Setting: RNA with constant flanks, human and mouse sites, ends assumed
# All sequences stand within: GGGAGUUCUACAGUCCGACGAUC … CAACAGAGGAUUGAGCAUCA
Oligonucleotide,bound/input enrichment [ratio]
UGACUGUUGCAGGGUGGGUGGUUUCCAAACGAGUCUAAGUUAUGAGUGCCCAGACUUCCCUAGCAGAGAAGGGCCUAAAUCCGGGGCUCAUGUGCCAGGAGAGUUAUGCAUGCAGUGGGA,0.292
GUGGAUAGCUUUGAUGACAUGAAUCUCUCAGAGUCCCUCCUCCGUGGUAUUUAUGCCUAUGGUUUUGAGAAGCCCUCUGCCAUCCAGCAGCGAGCUAUUCUUCCUUGUAUCAAGGGUUAU,0.161
CCUUCUAAUUUUGGAGAUUUUUCUCAGAAUAUCUCUACACCCAGUGAACAGCAGCAACCCUUAGCCCAGAAUUCUUCAGGAAAAACAGAAUAUAUGGCUUUUCCAAAACCUUUUGAAAGC,0.826
ACUUUUGGACUUGAUCAAUUGAAAACCAGAGAAGCCAUUGCCAUGCUCCACAAAGAUGGUAUAGAAUUUGCUUUUAAGGAGCCUAAUCCACAAGGGGAGAGCCAUCCACCUUUAAACUUG,0.468
CCUAAGGCAAAGAAUUCUCAGGAUUAUCAGGCCUUAACAGUACAUGACAACUUGGCUAUAAAAAUUUGCAAUGAGAUCUUAACAAGUCCAUGCUCACCAGAAAAUCGGGUUUAUACAAAA,0.181
UUGUUGGGAUCUAGGCUUCCUUACUUCUGGAGAAGUGGCCAUCCAACACCCACCUGUGCCAUAGAGGGACAGGGCCUCCACAGCUGCCUCUGCUGCUUGUCCUGUCCCCUCAUACCAGAG,0.132
GCUGACGAACAUCGGCUCUUGUGUCCCUUUGAACGAGUAGCUUGCUUAAAUAGAAACUUUGGAUGUCCAUUUACCCUGGCACGAAAUAAAGUUGCUGAACAUCUAGAAAUGUGUCCUGCA,0.818
AUAGGUUGGAAAGUAAUUUUUAACUUCUGGAAUCAUGUUGCCUACUGUUACUCUAAAUAGAAAUAUAGGGAAGGUUUUUUUUUUGUUGUUGUUGUUUUUUUAAAUGUGAAUUUUUGCCUA,29.8
UGUGUGUGUGUGUGUGUGUGUGCGCGCGCGCGUGAGUGUGUAUUGGGUGGUGGGUGGGUUUGGGAUGGACAUGGGUUAUCUUACAGAGACCUCUCUUCAUUUUGAUGUGGAGAAUUGGCC,1.29
GCAGGGCAAGAGGAUUAUGACAGAUUACGACCGCUGAGUUAUCCACAAACAGAUGUAUUUCUAGUCUGUUUUUCAGUGGUCUCUCCAUCUUCAUUUGAAAACGUGAAAGAAAAGUGGGUG,0.518
GCAGAGGAAAGUUCAGAUUGGUUUUAUGGUUUCCUCUCAUUUCUCUAUGAUAUAAUGACUCCUUUUGAAAUGCUAGAAGAAGAAGAAGAAGAAAGCGAAACCGCAGAUGGUGUUGAUGGU,0.962

# Block 4 — method: RNA Bind-n-Seq; molecule type: RNA; medium: in vitro; tested at: 365 nM; baseline: no-protein control; reading: higher = stronger binding
# Target: RNA binding protein fox-1 homolog 2, RRM domain, GST-SBP tag (RBFOX2, Homo sapiens, UniProt O43251-10, residues 100-194)
# Setting: natural RNA segment, single round, ends assumed
# All sequences stand within: GGGAGUUCUACAGUCCGACGAUC … UGGAAUUCUCGGGUGCCAA
# Residues (chain): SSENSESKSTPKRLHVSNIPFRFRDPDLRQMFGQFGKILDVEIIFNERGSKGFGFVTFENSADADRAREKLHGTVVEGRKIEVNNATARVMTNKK
Oligonucleotide,RBNS enrichment (R)
UGAAGCUUUGCUUUGUGGAUUGUAUGCCUGAUAUGAUGAAUAGUCAUGUGAUGAUACAUGGGAAGAACUAUAGAAAGAAUUAUCCAGAAGCUAAGAUUUGAUGGCCAGCU,0.596
UUCUCCUCCUCCCCUCAGCCUUGUGGCCAGUUCCUCUUCACAUGAAGCCCCUGGCAUUUGCUGGGGAAGGGACUGGCCUGGUACUUGCUGUUAGGGCAGGAAGGGGCAAA,0.262
UCACUGUCCUCAGGAGCCAGGCAUCCUCCCUGGGUGCCCACUCUUUGCAUCUGCUUUUCCUGUAAGACUCCACUGUGCACUGGCAUCCAGAGAAGGUGUCUUUGGAGUUC,4.18
GCGUCCAUCUGUGCUGUGCGCCCCACAGUAGACGUGCAGACGUCCCUGAGAGGUUCUUGAAGAUGUUUAUUUAUAUUGUCCUUUUUUACUGGAAGACGUACGCAUACUCC,0.477
AGCCCUGGCCUUGCUCUGAUCAGCCUGCUCCUGGGGCAUGGGUGCUCCCGCUUCUGCUCUGCUUGGGCUCACAGGUAUGCACUGGCUGGGUGUGGAUGAGUAUUUUUCUG,0.512
UGAGUUGCCUGUUUACUGUUGAUGCAAUUGUUUUGAUUUUUAACUAAAUGCAAAUACCUUCCUGCCUCAUCCCAGAAAAUGAAAAAUAAUGCUUUUGACACUGUUUCUAG,0.593
AGUCUUGUACCUCAGGCAGGCCCAUCUAGAGCUAUUGCUCCUUCCCACAGCAAAGGUAUUGUGGAUGACCCUUAGAAUCCAUUCUCUGGUCUUCUGAAAUACCAAGGGCA,0.279
CAGCCCCUCAGUGUAGCCACUUCACCACCCUGUGCACCCUAAGUGACUUUUGAUUCCUUGAACCUUUUACUUACUUGAGGUGAGGAAAUGUCUGAUAAUCUGCAAAACAA,0.427
UCGCUGCUUCGUUGUCUGAUUUUGCUUAGAUUUUGCUUUGGUUAGGUUGCGUUUUGGGGUUUGCCUUUUUUUGUUGUCGCUUAAAUGCAAUUUGGUUGUAAAGAUUUGAU,0.631
AUUAAGAAGUAGAAGGCACUAGCUUCAAAGAGUGAGACAUUCAGGGCCUUUUCAGCAUUGGCCCACUAGCACCAUGCAUUUAUCUGAAUUCACGGGGCCCUCUGGGCACA,2.07
UGCAUGAUACCUUGAAAUUGGGGGGAGGGGGCAUGCCAAGUUGGGCAUCACUUUGUCUUAGCAAUUAAUGGGAUAUUGAUUACUAAAAUAAGUUAAUAUUAAGCAAGGUG,6.04
AGUCUUGGCCAGCCAACUCUGGGAAUACAGGGGUGAAAGGGGGGAACCAGUGAAAAUGAAAGGAAGUUUCAGUAUUAGAUGCACUUAAGUUAGCCUCCACCACCCUUUCC,0.533

# Repeated from above (block 3):
Oligonucleotide,bound/input enrichment [ratio]
GUGGAUAGCUUUGAUGACAUGAAUCUCUCAGAGUCCCUCCUCCGUGGUAUUUAUGCCUAUGGUUUUGAGAAGCCCUCUGCCAUCCAGCAGCGAGCUAUUCUUCCUUGUAUCAAGGGUUAU,0.161
CCUUCUAAUUUUGGAGAUUUUUCUCAGAAUAUCUCUACACCCAGUGAACAGCAGCAACCCUUAGCCCAGAAUUCUUCAGGAAAAACAGAAUAUAUGGCUUUUCCAAAACCUUUUGAAAGC,0.826
ACUUUUGGACUUGAUCAAUUGAAAACCAGAGAAGCCAUUGCCAUGCUCCACAAAGAUGGUAUAGAAUUUGCUUUUAAGGAGCCUAAUCCACAAGGGGAGAGCCAUCCACCUUUAAACUUG,0.468
CCUAAGGCAAAGAAUUCUCAGGAUUAUCAGGCCUUAACAGUACAUGACAACUUGGCUAUAAAAAUUUGCAAUGAGAUCUUAACAAGUCCAUGCUCACCAGAAAAUCGGGUUUAUACAAAA,0.181
UUGUUGGGAUCUAGGCUUCCUUACUUCUGGAGAAGUGGCCAUCCAACACCCACCUGUGCCAUAGAGGGACAGGGCCUCCACAGCUGCCUCUGCUGCUUGUCCUGUCCCCUCAUACCAGAG,0.132
GCUGACGAACAUCGGCUCUUGUGUCCCUUUGAACGAGUAGCUUGCUUAAAUAGAAACUUUGGAUGUCCAUUUACCCUGGCACGAAAUAAAGUUGCUGAACAUCUAGAAAUGUGUCCUGCA,0.818
AUAGGUUGGAAAGUAAUUUUUAACUUCUGGAAUCAUGUUGCCUACUGUUACUCUAAAUAGAAAUAUAGGGAAGGUUUUUUUUUUGUUGUUGUUGUUUUUUUAAAUGUGAAUUUUUGCCUA,29.8
